# Experimental data collected from several papers.
# Compare with care: the assays were run in different laboratories. ± marks the error that the study gave.
# Target: Receptor tyrosine-protein kinase erbB-2 (ERBB2, Homo sapiens, UniProt P04626)
SMILES,assay,conditions,how to read,measurement,value
C=CC(=O)N1CCC[C@@H](n2nc(-c3ccc(Oc4ccccc4)cc3)c3c(N)ncnc32)C1,"kinase activity, inhibitor, HotSpot radiometric","100 nM, added: ATP 10 µM",,remaining activity,8.1 ± 0.4%
O=C(NC1CCC1)c1ccc2nc(-c3cccc(NS(=O)(=O)NCCN4CCCCC4)c3)cn2c1,enzyme activity,10 µM,,remaining activity,69%
C#Cc1cccc(Oc2ccc(-c3nn([C@@H]4CCCN(C(=O)C=C)C4)c4ncnc(N)c34)cc2)c1,ABPP-SILAC,"1 µM, 1 h",baseline: DMSO,SILAC ratio,20
COc1ccc(F)cc1C(=O)NCc1ccc(-c2nn([C@@H](C)C(F)(F)F)c(N)c2C(N)=O)cc1,"kinase activity, inhibitor, HotSpot radiometric","1000 nM, added: ATP at Km",,remaining activity,66.2 ± 1.3%
C=CC(=O)N1CCC[C@@H](n2nc(-c3ccc(Oc4ccccc4)cc3)c3c(N)ncnc32)C1,,0.1 µM,,remaining activity,114%
[2H]c1cc(C)c(NC(=O)c2cnc(Nc3cc(N4CCCCC4)nc(C)n3)s2)c(Cl)c1,,0.01 µM,,inhibition,< 30%
CC[C@H](C)[C@H](NC(=O)[C@H](CO)NC(=O)[C@H](CCCNC(=N)N)NC(=O)[C@H](CC(C)(C)C)NC(=O)[C@H](CCCCNC(=O)CN(CCNC(=O)CN(CCNC(=O)CN(CCNC(=O)CN(CCNC(=O)[C@H](CCCNC(=N)N)NC(C)=O)C(=O)Cn1ccc(N)nc1=O)C(=O)Cn1cnc2c(=O)[nH]c(N)nc21)C(=O)Cn1cnc2c(=O)[nH]c(N)nc21)C(=O)Cn1ccc(N)nc1=O)NC(=O)[C@H](C)NC(=O)[C@H](CCCNC(=N)N)NC(=O)[C@H](CCCCN)NC(=O)[C@H](CCC(N)=O)NC(=O)[C@H](CCC(N)=O)NC(=O)[C@H](CC(N)=O)NC(=O)[C@@H](NC(=O)[C@H](CC(C)C)NC(=O)[C@H](CC(N)=O)NC(=O)[C@@H]1CCCN1C(=O)[C@H](CC(=O)O)NC(=O)[C@H](CC(C)C)NC(=O)[C@H](C)NC(=O)[C@H](CS)NC(=O)[C@H](CCCC(=O)NCCN(CC(=O)NCCN(CC(=O)NCCN(CC(=O)NCCN(CC(N)=O)C(=O)Cn1cnc2c(=O)[nH]c(N)nc21)C(=O)Cn1ccc(N)nc1=O)C(=O)Cn1ccc(N)nc1=O)C(=O)Cn1cnc2c(=O)[nH]c(N)nc21)NC(=O)[C@H](Cc1c[nH]c2ccccc12)NC(=O)[C@H](Cc1ccc(O)cc1)NC(=O)[C@H](CCCNC(=N)N)NC(=O)[C@H](CC(N)=O)NC(C)=O)[C@@H](C)O)C(=O)N[C@@H](Cc1ccc(O)cc1)C(=O)N[C@@H](CCC(=O)O)C(N)=O,"binding, affinity selection mass spectrometry","1 h, 4 °C, unit not given",baseline: control-subtracted,enrichment,-0.57
CNc1ncc2c(/C=C/C(=O)N3CCC(OC)CC3)nn(Cc3cccc(C(F)(F)F)c3)c2n1,"kinase activity, inhibitor",1 µM,baseline: untreated control,remaining activity,90%
Cc1nc(Nc2ncc(C(=O)Nc3c(C)cccc3Cl)s2)cc(N2CCN(CCO)CC2)n1,"kinase activity, inhibitor, Kinase-Glo MAX",10 µM,,inhibition,90.1%
C=CC(=O)N1CCC([C@@H]2CCNc3c(C(N)=O)c(-c4ccc(Oc5ccccc5)cc4)nn32)CC1,"kinase activity, inhibitor, HotSpot radiometric","100 nM, added: ATP 10 µM",,remaining activity,103%
CCCC[C@H](NC(=O)[C@H](CCC(=O)O)NC(=O)[C@H](CCCCN)NC(=O)[C@H](CO)NC(=O)[C@H](Cc1ccccc1)NC(C)=O)C(=O)N[C@@H](CCCNC(=N)N)C(=O)N[C@@H](CC(N)=O)C(=O)N[C@@H](CCCNC(=N)N)C(=O)N[C@@H](Cc1ccncc1)C(=O)N[C@@H](Cc1c[nH]c2ccccc12)C(=O)N[C@@H](CCCC(=O)NCCN(CC(=O)NCCN(CC(=O)NCCN(CC(=O)NCCN(CC(N)=O)C(=O)Cn1cnc2c(=O)[nH]c(N)nc21)C(=O)Cn1ccc(N)nc1=O)C(=O)Cn1ccc(N)nc1=O)C(=O)Cn1cnc2c(=O)[nH]c(N)nc21)C(=O)N[C@@H](CS)C(=O)N[C@@H](C)C(=O)NC1(C(=O)N[C@@H](CC(=O)O)C(=O)N2CCC[C@H]2C(=O)N[C@@H](CC(N)=O)C(=O)N[C@@H](CC(C)C)C(=O)N[C@H](C(=O)N[C@@H](CC(N)=O)C(=O)N[C@@H](CCC(N)=O)C(=O)N[C@@H](CCC(N)=O)C(=O)N[C@@H](CCCCN)C(=O)N[C@@H](CCCNC(=N)N)C(=O)N[C@@H](C)C(=O)N[C@@H](CCCCNC(=O)CN(CCNC(=O)CN(CCNC(=O)CN(CCNC(=O)CN(CCNC(=O)[C@H](CCCNC(=N)N)NC(C)=O)C(=O)Cn2ccc(N)nc2=O)C(=O)Cn2cnc3c(=O)[nH]c(N)nc32)C(=O)Cn2cnc3c(=O)[nH]c(N)nc32)C(=O)Cn2ccc(N)nc2=O)C(=O)N[C@H](C(=O)N[C@@H](CCCNC(=N)N)C(=O)N[C@@H](CO)C(=O)N[C@H](C(=O)N[C@@H](Cc2ccc(O)cc2)C(=O)N[C@@H](CCC(=O)O)C(=O)N[C@@H](CCC(=O)O)C(=O)NCC(N)=O)[C@@H](C)CC)[C@@H](C)CC)[C@@H](C)O)CCCCCC1,"binding, affinity selection mass spectrometry","1 h, 4 °C, unit not given",baseline: control-subtracted,enrichment,-0.67

# Repeated from above:
SMILES,assay,conditions,how to read,measurement,value
C=CC(=O)N1CCC[C@@H](n2nc(-c3ccc(Oc4ccccc4)cc3)c3c(N)ncnc32)C1,"kinase activity, inhibitor, HotSpot radiometric","100 nM, added: ATP 10 µM",,remaining activity,8.1 ± 0.4%
